Experimental data gathered from unrelated publications.
± gives the spread as reported.
IDE: Insulin-degrading enzyme (IDE, Homo sapiens, UniProt P14735)
Chain of UniProt P14735 (whole entry, looked up): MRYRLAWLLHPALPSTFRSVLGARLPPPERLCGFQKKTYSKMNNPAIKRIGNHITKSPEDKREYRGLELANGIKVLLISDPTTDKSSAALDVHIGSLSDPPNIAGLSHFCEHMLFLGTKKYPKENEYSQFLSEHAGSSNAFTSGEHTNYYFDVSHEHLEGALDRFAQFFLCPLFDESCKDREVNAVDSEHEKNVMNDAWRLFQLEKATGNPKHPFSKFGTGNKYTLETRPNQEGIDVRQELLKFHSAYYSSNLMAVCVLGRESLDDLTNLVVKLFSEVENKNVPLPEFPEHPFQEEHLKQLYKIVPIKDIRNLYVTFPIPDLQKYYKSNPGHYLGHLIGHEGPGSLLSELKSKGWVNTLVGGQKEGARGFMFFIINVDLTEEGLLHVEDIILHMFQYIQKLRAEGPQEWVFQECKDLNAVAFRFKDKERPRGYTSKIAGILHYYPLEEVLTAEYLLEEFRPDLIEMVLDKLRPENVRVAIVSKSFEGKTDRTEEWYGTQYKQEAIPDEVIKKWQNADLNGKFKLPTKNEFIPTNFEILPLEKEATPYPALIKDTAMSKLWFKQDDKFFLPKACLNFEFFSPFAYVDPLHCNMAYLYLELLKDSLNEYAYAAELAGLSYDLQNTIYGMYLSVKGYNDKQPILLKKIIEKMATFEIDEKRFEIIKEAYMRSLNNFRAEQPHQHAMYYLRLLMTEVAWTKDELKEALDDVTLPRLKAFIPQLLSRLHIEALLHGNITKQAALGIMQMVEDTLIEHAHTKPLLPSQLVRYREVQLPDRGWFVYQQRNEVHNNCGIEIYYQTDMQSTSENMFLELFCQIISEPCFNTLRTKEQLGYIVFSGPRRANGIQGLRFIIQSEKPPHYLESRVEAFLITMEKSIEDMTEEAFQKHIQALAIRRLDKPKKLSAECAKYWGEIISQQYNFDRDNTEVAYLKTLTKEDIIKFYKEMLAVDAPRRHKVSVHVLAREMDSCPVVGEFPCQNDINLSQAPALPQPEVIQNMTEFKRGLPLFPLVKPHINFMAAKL
MAPT neurofibrillary tangles: Microtubule-associated protein tau, neurofibrillary tangles (MAPT, Homo sapiens, UniProt P10636)
Chain of UniProt P10636 (whole entry, looked up): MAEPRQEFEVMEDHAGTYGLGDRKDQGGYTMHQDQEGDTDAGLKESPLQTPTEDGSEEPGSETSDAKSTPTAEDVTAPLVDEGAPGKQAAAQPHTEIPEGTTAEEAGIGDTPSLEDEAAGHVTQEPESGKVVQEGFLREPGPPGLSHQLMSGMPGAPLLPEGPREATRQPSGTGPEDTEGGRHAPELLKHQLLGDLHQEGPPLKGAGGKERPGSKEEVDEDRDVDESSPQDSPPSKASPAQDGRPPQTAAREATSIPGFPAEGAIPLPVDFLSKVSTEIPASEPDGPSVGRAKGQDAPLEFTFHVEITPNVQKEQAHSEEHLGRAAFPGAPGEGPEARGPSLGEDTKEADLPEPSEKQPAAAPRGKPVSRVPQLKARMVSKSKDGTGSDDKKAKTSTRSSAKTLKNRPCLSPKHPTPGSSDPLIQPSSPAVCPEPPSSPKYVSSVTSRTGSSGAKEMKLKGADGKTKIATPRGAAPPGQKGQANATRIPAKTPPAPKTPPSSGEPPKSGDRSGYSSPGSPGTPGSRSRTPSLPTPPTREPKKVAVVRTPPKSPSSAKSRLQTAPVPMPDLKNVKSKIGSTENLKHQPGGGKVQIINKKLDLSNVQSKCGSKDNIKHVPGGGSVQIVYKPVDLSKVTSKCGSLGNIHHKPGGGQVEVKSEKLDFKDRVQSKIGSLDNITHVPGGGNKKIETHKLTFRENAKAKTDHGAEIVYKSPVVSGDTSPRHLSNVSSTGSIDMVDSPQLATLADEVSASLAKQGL
SLC10A1: Hepatic sodium/bile acid cotransporter (SLC10A1, Homo sapiens, UniProt Q14973)
Chain of UniProt Q14973 (whole entry, looked up): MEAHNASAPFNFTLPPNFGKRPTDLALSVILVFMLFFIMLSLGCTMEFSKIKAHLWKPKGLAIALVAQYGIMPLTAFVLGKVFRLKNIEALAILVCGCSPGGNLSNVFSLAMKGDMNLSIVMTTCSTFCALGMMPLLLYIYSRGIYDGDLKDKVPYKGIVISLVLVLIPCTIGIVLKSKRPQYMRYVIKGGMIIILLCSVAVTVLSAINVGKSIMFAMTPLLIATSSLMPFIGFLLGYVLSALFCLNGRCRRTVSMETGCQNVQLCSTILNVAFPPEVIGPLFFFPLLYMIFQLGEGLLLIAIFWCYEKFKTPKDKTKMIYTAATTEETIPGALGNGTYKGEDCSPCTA
Chain of UniProt Q9QYJ6 (whole entry, looked up): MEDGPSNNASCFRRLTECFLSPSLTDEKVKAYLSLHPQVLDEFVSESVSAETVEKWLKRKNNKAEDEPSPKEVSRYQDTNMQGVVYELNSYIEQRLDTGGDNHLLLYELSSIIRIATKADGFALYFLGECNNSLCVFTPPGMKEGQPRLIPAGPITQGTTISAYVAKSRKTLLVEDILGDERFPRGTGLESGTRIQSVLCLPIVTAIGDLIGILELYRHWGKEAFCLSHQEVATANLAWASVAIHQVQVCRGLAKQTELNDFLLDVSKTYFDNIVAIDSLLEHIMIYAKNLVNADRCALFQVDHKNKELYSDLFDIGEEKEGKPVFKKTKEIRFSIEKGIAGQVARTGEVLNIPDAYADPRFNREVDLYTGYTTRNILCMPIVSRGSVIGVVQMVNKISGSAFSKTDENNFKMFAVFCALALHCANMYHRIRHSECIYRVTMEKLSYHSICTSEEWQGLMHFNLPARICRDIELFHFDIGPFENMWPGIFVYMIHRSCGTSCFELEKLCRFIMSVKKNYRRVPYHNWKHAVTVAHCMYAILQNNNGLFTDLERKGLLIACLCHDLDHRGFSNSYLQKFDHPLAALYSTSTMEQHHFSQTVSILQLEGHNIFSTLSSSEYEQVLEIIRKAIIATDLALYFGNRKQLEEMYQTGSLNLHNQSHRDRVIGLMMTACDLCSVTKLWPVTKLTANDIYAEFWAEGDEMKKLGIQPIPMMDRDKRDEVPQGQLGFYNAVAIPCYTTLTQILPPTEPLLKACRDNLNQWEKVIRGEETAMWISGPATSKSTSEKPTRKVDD
Chain of UniProt Q9HWP3 (whole entry, looked up): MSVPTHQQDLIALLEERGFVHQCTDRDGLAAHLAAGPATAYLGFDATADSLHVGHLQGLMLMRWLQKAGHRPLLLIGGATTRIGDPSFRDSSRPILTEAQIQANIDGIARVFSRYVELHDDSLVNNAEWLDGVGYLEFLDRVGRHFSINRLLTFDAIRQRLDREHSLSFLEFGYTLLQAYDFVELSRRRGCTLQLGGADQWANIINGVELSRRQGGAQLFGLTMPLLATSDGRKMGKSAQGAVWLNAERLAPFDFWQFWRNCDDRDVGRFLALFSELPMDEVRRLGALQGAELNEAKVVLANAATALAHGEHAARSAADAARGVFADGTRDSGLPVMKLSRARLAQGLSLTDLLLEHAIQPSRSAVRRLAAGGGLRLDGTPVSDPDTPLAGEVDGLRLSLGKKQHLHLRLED
Chain of UniProt Q965T6 (whole entry, looked up): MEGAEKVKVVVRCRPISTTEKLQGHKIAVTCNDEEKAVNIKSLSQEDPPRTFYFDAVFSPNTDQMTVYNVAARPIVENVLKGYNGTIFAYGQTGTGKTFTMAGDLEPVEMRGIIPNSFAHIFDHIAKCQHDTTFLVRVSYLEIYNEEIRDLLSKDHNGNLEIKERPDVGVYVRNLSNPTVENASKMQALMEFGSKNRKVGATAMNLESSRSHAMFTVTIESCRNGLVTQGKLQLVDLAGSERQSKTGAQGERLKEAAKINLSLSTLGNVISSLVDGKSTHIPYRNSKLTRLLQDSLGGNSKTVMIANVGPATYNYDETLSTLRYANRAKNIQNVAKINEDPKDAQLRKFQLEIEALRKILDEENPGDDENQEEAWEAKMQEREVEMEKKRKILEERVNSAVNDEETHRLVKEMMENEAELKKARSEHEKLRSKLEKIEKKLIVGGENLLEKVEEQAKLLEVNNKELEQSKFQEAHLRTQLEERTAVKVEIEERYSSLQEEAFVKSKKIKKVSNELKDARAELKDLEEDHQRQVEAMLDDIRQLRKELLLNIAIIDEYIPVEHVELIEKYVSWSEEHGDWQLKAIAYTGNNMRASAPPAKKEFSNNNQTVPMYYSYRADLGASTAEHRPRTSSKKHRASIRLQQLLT
Chain of UniProt P11609 (whole entry, looked up): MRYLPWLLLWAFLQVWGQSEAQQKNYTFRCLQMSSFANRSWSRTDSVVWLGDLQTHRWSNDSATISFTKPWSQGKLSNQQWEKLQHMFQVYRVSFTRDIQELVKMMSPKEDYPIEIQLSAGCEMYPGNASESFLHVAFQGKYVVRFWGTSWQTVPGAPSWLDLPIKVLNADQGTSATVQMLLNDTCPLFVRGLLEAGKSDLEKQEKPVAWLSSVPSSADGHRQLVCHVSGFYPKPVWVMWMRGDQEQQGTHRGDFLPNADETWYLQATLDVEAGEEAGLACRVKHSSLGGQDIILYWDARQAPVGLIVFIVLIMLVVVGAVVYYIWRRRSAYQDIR
Chain of UniProt Q99808 (whole entry, looked up): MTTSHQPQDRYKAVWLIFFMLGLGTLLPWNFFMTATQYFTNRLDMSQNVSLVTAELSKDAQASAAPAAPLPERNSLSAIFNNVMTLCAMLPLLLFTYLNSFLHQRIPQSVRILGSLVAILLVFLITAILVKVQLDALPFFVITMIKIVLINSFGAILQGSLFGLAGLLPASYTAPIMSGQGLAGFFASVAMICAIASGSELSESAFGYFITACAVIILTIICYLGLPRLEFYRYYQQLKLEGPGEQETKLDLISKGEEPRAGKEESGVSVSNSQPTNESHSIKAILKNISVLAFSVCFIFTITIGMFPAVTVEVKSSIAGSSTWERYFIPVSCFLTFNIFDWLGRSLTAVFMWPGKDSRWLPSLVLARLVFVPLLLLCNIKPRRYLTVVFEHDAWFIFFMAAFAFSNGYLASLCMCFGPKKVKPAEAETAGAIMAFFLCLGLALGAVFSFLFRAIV

Cc1ccc(S(=O)(=O)/C=C/C#N)cc1 — EC50 (HEK293 NF-κB luciferase reporter; NF-κB reporter gene, antagonist; 24 h, with: TNFα 5 ng/mL): 16.9 µM
salvianolic acid B — Ki (Prothrombin (F2, Homo sapiens, UniProt P00734); protease activity, inhibitor, fluorogenic substrate; pH 7.4, 25 °C): 1.7 ± 0.27 µM
COc1cc2c(cc1OC)CN(CCCCNC(=O)c1cc(C)ccc1OCCF)CC2 — Ki (Pde10a (Rattus norvegicus, UniProt Q9QYJ6); ligand displacement, radioligand; cell membranes): > 1 µM
CCCCCCCCCCCCCCC(O)C(O)C(COC1OC(CO)C(O)C(O)C1O)NC(=O)CCCCCCCc1ccc(F)cc1 (stereo not shown) — Ki (Cd1d1 (Mus musculus, UniProt P11609); competitive binding on microarray; with: surface-printed ligand): 0.21 ± 0.05 µM
O=C(Nc1cccn(O)c1=S)c1cccs1 — Ki (IDE; substrate degradation, fluorescence polarisation; mean of physiological substrates): 38 µM
Nc1ccc(-c2ccc3cc(OCCOCCOCCOCCOCCF)ccc3n2)cc1 — Ki (MAPT neurofibrillary tangles; binding, radioligand competition; AD brain homogenate; 2 h, 37 °C, with: [3H]THK-523): > 1 µM
C[C@H](CCC(=O)O)[C@H]1CC[C@H]2[C@@H]3[C@H](O)C[C@@H]4C[C@H](O)CC[C@]4(C)[C@H]3CC[C@]12C — Ki (SLC10A1; transporter uptake, inhibitor, radiometric): 3.09 µM
Nc1ncnc2c1ncn2[C@@H]1O[C@H](COP(=O)(O)OP(=O)(O)O)[C@@H](O)[C@H]1O — Ki (Heterotrimeric kinesin-II, with KAP-1 subunit (Caenorhabditis elegans, UniProt Q19633+Q965T6); microtubule gliding velocity, competitive inhibitor; 21 °C, with: Mg-ATP): 42 µM
O=c1sc2ccccc2n1CCNC12CC3CC(CC(C3)C1)C2 — Ki (Sigma-2 receptor (Cavia porcellus, UniProt H0V073); radioligand binding; guinea pig brain; with: [3H]DTG with (+)-pentazocine): 0.0641 ± 0.00325 µM
O=C1NC(=O)c2cc(Nc3ccc(F)cc3)c(Nc3ccc(F)cc3)cc21 — IC50 (HeLa expressing ODD-Luc; ODD-Luc degradation, inhibitor, cycloheximide chase luciferase): ~10 µM
CC(C)[C@H](NC(=O)[C@@H]1CCCN1C(=O)[C@H](CCCNC(=N)N)NC(=O)[C@H](CS)NC(=O)[C@H](Cc1c[nH]c2ccccc12)NC(=O)[C@H](CCCNC(=N)N)NC(=O)[C@@H](Cc1ccccc1)NC(=O)[C@H](Cc1c[nH]cn1)NC(=O)[C@H](CCC(=O)O)NC(=O)[C@H](CS)NC(=O)[C@H](CS)NC(=O)[C@H](CCCCN)NC(=O)[C@@H]1CC(=O)N[C@@H](CCCNC(=N)N)C(=O)N[C@@H](C)C(=O)N[C@@H](CC(=O)O)C(=O)N[C@H](Cc2ccc(O)cc2)C(=O)N1)C(N)=O [technetium-99m labelled] — tissue uptake (C57 mice, brain; intravenous, 0.037 MBq, 24 h): 0.02 ± 0.01 %ID/g
Cc1cc2nc(NCCCO)n(CC(=O)c3cc(C(C)(C)C)c(O)c(C(C)(C)C)c3)c2cc1C — EC50 (HEK293 NF-κB luciferase reporter; NF-κB reporter gene, antagonist; 24 h, with: TNFα 5 ng/mL): 8.59 µM
Cc1ccc(N2CN(CC(=O)Nc3cccc(Cl)c3)S(=O)(=O)c3cccnc32)cc1 — Ki (Tyrosine--tRNA ligase 1 (tyrS1, Pseudomonas aeruginosa, UniProt Q9HWP3); aminoacylation, inhibitor; with: Tyr 100 µM, ATP 2.5 mM): 4.91 µM
Nc1ccc(-c2ccc3cc(OCCOCCN4CCOC4=O)ccc3n2)cc1 — Ki (MAPT neurofibrillary tangles; binding, radioligand competition; AD brain homogenate; 2 h, 37 °C, with: [3H]THK-523): 0.035 ± 0.019 µM
O=S(=O)(Nc1cccn(O)c1=S)c1ccc(-c2ccccc2)s1 — Ki (IDE; substrate degradation, fluorescence polarisation; mean of physiological substrates): 25 µM
C[C@H](CCC(=O)NCCS(=O)(=O)O)[C@H]1CC[C@H]2[C@@H]3[C@@H](O)C[C@@H]4C[C@H](O)CC[C@]4(C)[C@H]3CC[C@]12C — Ki (SLC10A1; transporter uptake, inhibitor, radiometric): 13.5 µM
Cn1ccc(S(=O)(=O)Nc2cccn(O)c2=S)n1 — Ki (IDE; substrate degradation, fluorescence polarisation; mean of physiological substrates): 11 µM
O=C1c2ccccc2-c2nc3nnnn3nc21 — IC50 (HeLa expressing ODD-Luc; ODD-Luc degradation, inhibitor, cycloheximide chase luciferase): 3.4 ± 0.9 µM
Cn1cc(S(=O)(=O)Nc2cccn(O)c2=S)cn1 — Ki (IDE; substrate degradation, inhibitor; mean of insulin, Aβ, substrate V): 23 µM
Nc1nc(Cl)nc2c1ncn2[C@H]1C[C@H](O)[C@@H](CO)O1 — Ki (SLC29A1 (Homo sapiens, UniProt Q99808); transporter uptake, inhibitor, radiometric): 62 µM
Cc1cc(OCCCS(C)(=O)=O)cc(C)c1-c1cccc(COc2ccc3c(c2)OC[C@H]3CC(=O)O)c1 — Ki (SLC10A1; transporter uptake, inhibitor): 4.3 µM
O=C(Nc1cccn(O)c1=S)c1ccccc1 — Ki (IDE; substrate degradation, fluorescence polarisation; mean of physiological substrates): 37 µM

For quick reference, copied from above:
Cn1cc(S(=O)(=O)Nc2cccn(O)c2=S)cn1 — Ki (IDE; substrate degradation, inhibitor; mean of insulin, Aβ, substrate V): 23 µM
Nc1ccc(-c2ccc3cc(OCCOCCN4CCOC4=O)ccc3n2)cc1 — Ki (MAPT neurofibrillary tangles; binding, radioligand competition; AD brain homogenate; 2 h, 37 °C, with: [3H]THK-523): 0.035 ± 0.019 µM
